Measured values of several laboratories.
Parts stem from different laboratories: compare values within a part only.

Study 1 — method: RNA Bind-n-Seq; form: RNA; matrix: in vitro; tested at: 100 nM; baseline: input RNA pool; reading: higher = stronger binding
Target: RING finger protein unkempt homolog, zinc fingers 1-6, SBP tag (UNK, Homo sapiens, UniProt Q9C0B0, residues 30-357)
UniProt Q9C0B0, sequence (30-357, looked up): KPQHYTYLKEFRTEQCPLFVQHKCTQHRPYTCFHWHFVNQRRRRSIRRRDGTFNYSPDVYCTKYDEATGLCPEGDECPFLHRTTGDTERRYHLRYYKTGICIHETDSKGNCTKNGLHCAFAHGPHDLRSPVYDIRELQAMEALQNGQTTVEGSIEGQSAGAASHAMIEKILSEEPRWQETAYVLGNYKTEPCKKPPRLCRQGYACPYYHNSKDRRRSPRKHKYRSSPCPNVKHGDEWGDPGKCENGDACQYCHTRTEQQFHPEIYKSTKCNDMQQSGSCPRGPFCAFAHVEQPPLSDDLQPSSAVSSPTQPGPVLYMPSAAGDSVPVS
Setting: RNA with constant flanks, vertebrate orthologous sites, ends assumed
`GGGAGUUCUACAGUCCGACGAUCGAGUUAGAAGAGUUAGCAUCUUUAUUUUUGUAUCAAAGAUAAAGGUUAUUUUGAAAUUAUUAGAGUUUUUACACAACUCUGCCGUUGUAAGCAAAUGGUCCGACCAUUGGGAUCCCCCCUCAACAGAGGAUUGAGCAUCA` has a bound/input enrichment of 2.17 ratio.
`GGGAGUUCUACAGUCCGACGAUCGUUUUUGAGCAUACAAAAUGUUUAUCAAAUGCUGGGUGUGAAAUGAAGUCAUUUAGCAUCAGGUUGUUUGUUAUAUUUUAGCAAUUAGAUGUCUUUAAACCAGAGGCACACUGCCCUUGUCAACAGAGGAUUGAGCAUCA` has a bound/input enrichment of 0.725 ratio.
The bound/input enrichment of `GGGAGUUCUACAGUCCGACGAUCGUCAUCUGACUGGGUGAAGACUGUUCCAAGUUACAACCAAACAAAUAGCUCCAUGGACUUUAGAAAUUAUAUGAUGAGAGAUGAGACUCUGGAACCACUGCCCCAAAACUGGGAAAUGGCCAACAGAGGAUUGAGCAUCA` is reported as 1.02 ratio.

Study 2 — method: RNA Bind-n-Seq; form: RNA; matrix: in vitro; tested at: 1 µM; setting: whole 134-nt RNA, ends assumed; added: 150 mM KCl; baseline: input library; reading: higher = stronger binding
Target: Ras GTPase-activating protein-binding protein 1, C-terminal RGG region (G3BP1, Homo sapiens, UniProt Q13283)
UniProt Q13283, sequence (whole entry, looked up): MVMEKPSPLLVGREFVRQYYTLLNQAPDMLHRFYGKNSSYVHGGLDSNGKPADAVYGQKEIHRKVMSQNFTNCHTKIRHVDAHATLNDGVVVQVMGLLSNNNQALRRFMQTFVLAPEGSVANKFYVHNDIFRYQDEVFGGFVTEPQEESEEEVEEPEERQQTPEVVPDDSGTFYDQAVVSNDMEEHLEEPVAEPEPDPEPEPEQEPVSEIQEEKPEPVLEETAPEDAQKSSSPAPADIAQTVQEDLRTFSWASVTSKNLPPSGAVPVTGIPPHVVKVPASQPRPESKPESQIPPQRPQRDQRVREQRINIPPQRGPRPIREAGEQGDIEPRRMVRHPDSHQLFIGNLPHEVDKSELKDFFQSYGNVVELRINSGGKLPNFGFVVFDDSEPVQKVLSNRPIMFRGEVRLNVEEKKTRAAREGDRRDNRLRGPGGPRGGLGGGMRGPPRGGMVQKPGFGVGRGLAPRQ
`GGGAGUUCUACAGUCCGACGAUCUCCUGUGCUACACAUCGUAUGUACCGAAUCAAAUUUUUUUAAAUUUUUAAAUUUUUAAAAAAGUAUUAUGUUACGCCGUUCGGAUCUGCAUGGAAUUCUCGGGUGUCAAGG` has a log2 enrichment of -1.37.
With `GGGAGUUCUACAGUCCGACGAUCUGGCCCUGGUGGCAUGCGGGGAGGAAGAGGUGGCCUCAUGGAUCGUGGUGGUCCCGGUGGUAUGUUCAGAGGUGGCCGUGGUGGAGACAGUGGAAUUCUCGGGUGUCAAGG` the log2 enrichment was 1.82.
`GGGAGUUCUACAGUCCGACGAUCCUGUGCUACACAUCGUAUGUACCGAAUCGGGGCCCCCCCGGCCCCCCCGGGGCCCCCCCGGGAAAGUAUUAUGUUACGCCGUUCGGAUCUUGGAAUUCUCGGGUGUCAAGG` has a log2 enrichment of -1.93.
The log2 enrichment of `GGGAGUUCUACAGUCCGACGAUCCUGUGCUACACAUCGUAUGUACCGAAUCGGGGAAAAAAGGGGAAAAAAGGGGAAAAAAGGGGAAAGUAUUAUGUUACGCCGUUCGGAUCUUGGAAUUCUCGGGUGUCAAGG` is reported as -0.194.

Study 3 — method: protein binding microarray; form: double-stranded DNA, one strand shown; matrix: in vitro; tested at: not given; baseline: not given; reading: higher = stronger binding
Target: Histone acetyltransferase KAT6A, both winged helices, GST fusion (KAT6A, Homo sapiens, UniProt Q92794, residues 1-181)
Setting: 8-mer, flanks averaged, mean of 2 arrays, mostly near background
Residues (chain): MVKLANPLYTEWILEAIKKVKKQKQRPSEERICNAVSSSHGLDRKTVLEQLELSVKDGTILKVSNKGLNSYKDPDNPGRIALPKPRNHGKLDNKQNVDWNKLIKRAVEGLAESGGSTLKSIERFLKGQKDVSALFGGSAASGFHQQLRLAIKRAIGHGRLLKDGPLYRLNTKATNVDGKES
`ATCCATTC` has an E-score of -0.0983.
With `ACTAACGA` the E-score was -0.0472.
`ATAACGAA` has an E-score of -0.0428.

Other studies, line by line
For `PhoQ, residues 284 288 289 292 302 303 TASMAF`, the fold induction was 3.69 (PhoP, residues 12 14 15 18 19 TTLRV (Escherichia coli, UniProt P23836); Sort-seq, item: YFP reporter; E. coli; PhoQ-PhoP variant library, added: 10 µM Mg2+; baseline: high Mg2+ state, higher = stronger signaling).

Some of these lines once more (other studies, line by line):
For `PhoQ, residues 284 288 289 292 302 303 TASMAF`, the fold induction was 3.69 (PhoP, residues 12 14 15 18 19 TTLRV (Escherichia coli, UniProt P23836); Sort-seq, item: YFP reporter; E. coli; PhoQ-PhoP variant library, added: 10 µM Mg2+; baseline: high Mg2+ state, higher = stronger signaling).
